Measured values collected from several papers.
± gives the spread as reported.

Structure (SMILES) = Cc1nc2cccc(OCC(C)(C)C(=O)NC(C)C)c2c(N)c1C(=O)O; system = Swiss albino CD-1 mouse; conditions = oral, 500 mg/kg, 24 h; measurement = mean body weight change; result = 0.5 ± 0.6 g
Structure (SMILES) = CNC(=O)c1ccc(-c2cnc3ncc(Cc4ccc5ncccc5c4)n3n2)cc1F; test = CTCAE v4.0, any causality; system = human cancer patients; conditions = oral, dose not given, dose escalation; measurement = creatinine increase incidence (all grades); result = 21%
Structure (SMILES) = CCn1cc(C(=O)N2CCOCC2)c(=O)c2cc(NC3Cc4ccccc4C3)cnc21; system = human, fasted; conditions = oral suspension, 50 mg single dose, arithmetic mean; measurement = AUC(0-inf); result = 1440 ng·h/mL
Structure (SMILES) = COc1cc2[nH]c(C)c(-c3ccc(C(F)(F)F)cc3)c(=O)c2cc1Cl; conditions = pH 7.4; measurement = kinetic solubility; result = < 2 µM
Structure (SMILES) = FC(F)(F)c1ccc(CNc2ccc(Cc3c[nH]c4ncc(Cl)cc34)cn2)cn1; test = measured: Vomiting; system = patients with advanced solid tumours, non-TGCT cohort; conditions = oral, 1000 mg/day, any grade; measurement = treatment-related adverse events; result = 19%
Structure (SMILES) = COc1cccc(-c2n[nH]c(SCc3ccccn3)n2)c1OC; system = Sprague-Dawley rats, both sexes; conditions = oral dietary, 30 mg/kg/day, day 90, 1 h; measurement = plasma concentration; result = 1360 ng/mL
Structure (SMILES) = CCN(CC)Cc1ccc2cc(COC(=O)Nc3ccc(C(=O)NO)cc3)ccc2c1; system = rat plasma; conditions = 3200 ng/mL, 4 h, 10 °C, autosampler; how to read = baseline: nominal concentration; measurement = stability relative error; result = 101%
Structure (SMILES) = Cc1cc(-c2nccc3c2ccn3CC(=O)Nc2ccc(-c3cnccn3)cn2)ccn1; system = human; conditions = 20 mg once daily, multiple ascending dose; measurement = subjects with blurred vision; result = 0%
Structure (SMILES) = CN[C@@H](C)C(=O)N[C@H]1CN(S(=O)(=O)c2cccc(S(=O)(=O)N3CC[C@H]4CC[C@@H](C(=O)NC(c5ccccc5)c5ccccc5)N4C(=O)[C@@H](NC(=O)[C@H](C)NC)C3)c2)CC[C@H]2CC[C@@H](C(=O)NC(c3ccccc3)c3ccccc3)N2C1=O; test = LC-MS/MS; system = human, advanced solid tumours, plasma; conditions = intravenous, 12 mg weekly, day 15; measurement = AUC(0-t); result = 214 ± 32.6 ng·h/mL
Structure (SMILES) = Cc1ccc([C@@H]2O[C@H](CO)[C@@H](O)[C@H](O)[C@H]2O)cc1Cc1ccc(-c2ccc(F)cc2)s1; system = human, maintenance hemodialysis patients; conditions = oral, 100 mg once daily, steady state, mean; measurement = clearance; result = 12.3 L/h
Structure (SMILES) = C=CCN1CC(=O)N2[C@@H](Cc3ccc(O)cc3F)C(=O)N(Cc3cccc(N4CC(N5CCN(CC)CC5)C4)n3)C[C@@H]2N1C(=O)NCc1ccccc1; system = advanced solid tumour patients; conditions = oral, 120 mg twice daily, grade ≥3, dose-escalation; measurement = treatment-related AST increased; result = 0%
Structure (SMILES) = CCNCCCNC/C=C\CNCCCNCC; test = LC-MS/MS; system = human cancer patients, plasma; conditions = intravenous infusion 60 min, 150 mg, median, cycle 1; measurement = AUMC(0-inf); result = 731 ng·h²/mL
Structure (SMILES) = N#CCNC(=O)c1ccc(-c2ccnc(Nc3ccc(N4CCOCC4)cc3)n2)cc1; system = healthy volunteers, plasma; conditions = oral, dose not given, together with: rifampin multiple-dose; how to read = baseline: compound alone; measurement = AUCinf decrease; result = 15%
Structure (SMILES) = Oc1ccc(/C=C/c2cc(O)cc(O)c2)cc1; system = male Wistar rats, plasma; conditions = oral, 10 mg/kg; measurement = MRT; result = 9.72 ± 2.2 h
Structure (SMILES) = COc1cccc(OC)c1-c1cc(C(=O)NC2(C(=O)O)C3CC4CC(C3)CC2C4)nn1-c1ccc(C(=O)N(C)CCCN(C)CCCN(C)C(=O)CN2CCN(CC(=O)[O-])CCN(CC(=O)[O-])CCN(CC(=O)[O-])CC2)cc1C(C)C.[177Lu+3] (stereo not drawn); system = mouse, HT-29 xenograft; conditions = 4 h post injection, biodistribution; how to read = baseline: tumour over liver uptake; measurement = tumour-to-liver ratio; result = 7.67
Structure (SMILES) = N#Cc1ccc2c(c1)[C@H]1CCCN(C(=O)c3ccc4[nH]cnc4c3)[C@H]1C2; system = human; conditions = 240 mg, day 15; measurement = mean ACTH level; result = 7.9 pmol/L
Structure (SMILES) = COc1ncc(-c2nc3c(n2C(C)C)[C@H](c2ccc(Cl)cc2)N(c2cc(Cl)cn(C)c2=O)C3=O)c(OC)n1; system = human patients, plasma; conditions = oral, 45 mg, 0-24 h, low-dose arm, cycle 1 day 1; measurement = AUC(0-t) geometric mean; result = 5230 ng·h/mL
Structure (SMILES) = C[C@@H]1COCCN1c1cc(C2([S@](C)(=N)=O)CC2)nc(-c2cc[nH]c3nccc2-3)n1; system = Japanese advanced solid tumour patients; conditions = oral, 240 mg twice daily, any grade; measurement = Paronychia incidence; result = 0%
Structure (SMILES) = CC=CC1CCC(C2CCC(CCC)CC2)CC1 (stereo not drawn); system = rat, placenta; conditions = 1000 ng/mL in perfusate, middle dose, mixture of 21 LCMs; measurement = median placental accumulation; result = 10.4 ng/g
Structure (SMILES) = CC(C)(C)n1ncc(OCc2ccc(COCC[18F])cc2)c(Cl)c1=O; test = dynamic PET; system = healthy C57BL/6J mice, myocardium; conditions = intravenous, isoflurane anaesthesia; measurement = time to maximum uptake; result = 6.5 min
Structure (SMILES) = C[C@H]1CN(C(=O)CC#N)[C@]12CCN(c1ncnc3[nH]ccc13)C2; test = IL-4 secretion; system = human whole blood; conditions = blood/plasma ratio corrected; measurement = IC20; result = 10 ng/mL

Repeated from above:
Structure (SMILES) = Cc1ccc([C@@H]2O[C@H](CO)[C@@H](O)[C@H](O)[C@H]2O)cc1Cc1ccc(-c2ccc(F)cc2)s1; system = human, maintenance hemodialysis patients; conditions = oral, 100 mg once daily, steady state, mean; measurement = clearance; result = 12.3 L/h
Structure (SMILES) = CCn1cc(C(=O)N2CCOCC2)c(=O)c2cc(NC3Cc4ccccc4C3)cnc21; system = human, fasted; conditions = oral suspension, 50 mg single dose, arithmetic mean; measurement = AUC(0-inf); result = 1440 ng·h/mL
Structure (SMILES) = N#CCNC(=O)c1ccc(-c2ccnc(Nc3ccc(N4CCOCC4)cc3)n2)cc1; system = healthy volunteers, plasma; conditions = oral, dose not given, together with: rifampin multiple-dose; how to read = baseline: compound alone; measurement = AUCinf decrease; result = 15%
